Results gathered from unrelated publications.
A part holds a random share of what one study measured. Substitutions count along the parent as printed.
UniProt O14730, sequence (whole entry, looked up): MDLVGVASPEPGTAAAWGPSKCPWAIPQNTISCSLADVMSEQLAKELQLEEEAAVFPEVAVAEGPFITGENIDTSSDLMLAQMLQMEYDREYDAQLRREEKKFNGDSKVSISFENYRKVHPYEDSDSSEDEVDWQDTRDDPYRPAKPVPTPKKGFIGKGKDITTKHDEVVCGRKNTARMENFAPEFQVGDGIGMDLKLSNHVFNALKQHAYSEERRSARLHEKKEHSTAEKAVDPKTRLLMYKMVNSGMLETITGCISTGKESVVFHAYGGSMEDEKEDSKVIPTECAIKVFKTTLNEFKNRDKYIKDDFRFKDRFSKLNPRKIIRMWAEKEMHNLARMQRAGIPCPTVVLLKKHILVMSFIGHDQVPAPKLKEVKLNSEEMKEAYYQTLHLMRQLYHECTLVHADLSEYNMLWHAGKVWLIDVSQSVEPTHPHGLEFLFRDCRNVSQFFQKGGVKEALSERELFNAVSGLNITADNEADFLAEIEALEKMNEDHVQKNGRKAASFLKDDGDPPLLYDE
UniProt P42336, sequence (whole entry, unmodified, looked up): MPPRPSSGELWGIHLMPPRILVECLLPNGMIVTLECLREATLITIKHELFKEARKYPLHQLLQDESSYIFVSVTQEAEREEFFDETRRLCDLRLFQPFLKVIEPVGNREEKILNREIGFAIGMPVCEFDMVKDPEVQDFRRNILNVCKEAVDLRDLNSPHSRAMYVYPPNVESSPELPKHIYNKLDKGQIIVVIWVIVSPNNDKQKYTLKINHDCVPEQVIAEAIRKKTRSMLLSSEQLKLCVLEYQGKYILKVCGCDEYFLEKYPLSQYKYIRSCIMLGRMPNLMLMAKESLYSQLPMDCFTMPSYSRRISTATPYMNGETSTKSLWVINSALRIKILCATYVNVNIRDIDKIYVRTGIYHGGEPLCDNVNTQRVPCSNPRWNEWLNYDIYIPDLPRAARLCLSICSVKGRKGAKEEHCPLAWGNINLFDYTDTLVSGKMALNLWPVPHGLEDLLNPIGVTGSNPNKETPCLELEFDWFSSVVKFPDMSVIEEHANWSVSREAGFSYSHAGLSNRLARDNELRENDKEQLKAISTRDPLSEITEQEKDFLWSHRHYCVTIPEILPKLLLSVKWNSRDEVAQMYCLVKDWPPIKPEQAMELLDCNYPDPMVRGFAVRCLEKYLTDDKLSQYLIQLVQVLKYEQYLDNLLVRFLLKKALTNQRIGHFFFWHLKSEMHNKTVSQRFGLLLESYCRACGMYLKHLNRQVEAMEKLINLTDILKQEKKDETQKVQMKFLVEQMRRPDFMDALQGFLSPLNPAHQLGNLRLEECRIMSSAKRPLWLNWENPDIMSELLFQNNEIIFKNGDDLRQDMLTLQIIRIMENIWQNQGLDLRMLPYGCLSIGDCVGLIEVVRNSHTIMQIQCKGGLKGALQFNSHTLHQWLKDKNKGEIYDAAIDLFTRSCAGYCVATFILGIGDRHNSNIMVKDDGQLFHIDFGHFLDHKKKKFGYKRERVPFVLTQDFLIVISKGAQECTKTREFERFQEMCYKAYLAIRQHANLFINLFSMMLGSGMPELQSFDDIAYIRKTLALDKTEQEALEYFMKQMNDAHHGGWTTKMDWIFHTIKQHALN
UniProt Q6XUX3, sequence (whole entry, looked up): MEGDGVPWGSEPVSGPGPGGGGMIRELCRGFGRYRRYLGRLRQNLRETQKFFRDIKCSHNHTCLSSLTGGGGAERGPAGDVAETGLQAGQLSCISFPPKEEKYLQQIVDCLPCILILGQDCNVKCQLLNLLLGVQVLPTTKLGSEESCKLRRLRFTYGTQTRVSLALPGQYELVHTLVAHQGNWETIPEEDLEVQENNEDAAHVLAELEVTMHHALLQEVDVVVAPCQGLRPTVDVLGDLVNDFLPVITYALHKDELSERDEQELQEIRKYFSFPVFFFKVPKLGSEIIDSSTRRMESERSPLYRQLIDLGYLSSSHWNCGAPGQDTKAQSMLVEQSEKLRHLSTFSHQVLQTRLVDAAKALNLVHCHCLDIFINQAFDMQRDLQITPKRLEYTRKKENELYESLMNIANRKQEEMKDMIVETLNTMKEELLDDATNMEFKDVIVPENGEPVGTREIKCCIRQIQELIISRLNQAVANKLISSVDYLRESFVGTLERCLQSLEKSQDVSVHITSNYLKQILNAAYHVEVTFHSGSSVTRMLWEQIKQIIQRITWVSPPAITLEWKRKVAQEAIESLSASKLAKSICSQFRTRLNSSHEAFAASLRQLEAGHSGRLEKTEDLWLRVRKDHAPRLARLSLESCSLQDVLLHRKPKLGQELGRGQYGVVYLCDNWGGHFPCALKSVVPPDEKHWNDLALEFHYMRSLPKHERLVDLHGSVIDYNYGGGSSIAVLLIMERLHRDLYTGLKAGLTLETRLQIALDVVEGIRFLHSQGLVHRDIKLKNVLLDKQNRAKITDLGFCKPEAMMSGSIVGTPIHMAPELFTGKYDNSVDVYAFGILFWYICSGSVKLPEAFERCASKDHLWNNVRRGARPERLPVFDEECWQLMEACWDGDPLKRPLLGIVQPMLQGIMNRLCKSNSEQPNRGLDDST

Study 1
Target: Fragile X messenger ribonucleoprotein 1, C-terminal low-complexity region (Fmr1, Mus musculus, UniProt P35922)
Method: RNA Bind-n-Seq
Form: RNA
Medium: in vitro
Tested at: 200 nM
Notes: whole 134-nt RNA, ends assumed
Together with: 150 mM KCl
Relative to: input library
Direction: higher = stronger binding
Shared flanks, not repeated: GGGAGUUCUACAGUCCGACGAUC … UGGAAUUCUCGGGUGUCAAGG
`AACAUGCAGGUGGGCAUCUUUGGGAAGUGGGGCAAGGGGGGGAUAGGGAGGGGGGUAACACUUUGGGAACAGGUGGUCCCAGGUCGUUUC` has a log2 enrichment of 0.762.
`UCCUGUGCUACACAUCGUAUGUACCGAAUCGGGCCCCCGGGCCCCCGGGGCCCCCGGGGAAAGUAUUAUGUUACGCCGUUCGGAUCUGCA` has a log2 enrichment of -0.885.
`UUGUGGCUGAGAGACAGUUUGCAAAGGAACAACAUACAGAUGGGACACUAAAGGAAGUUGGAGAAGAUUAUCAAAUCGCAAUCCCAGAUU` has a log2 enrichment of 0.242.
For `UGUGCUACACAUCGUAUGUACCGAAUCGGGGUUUUUUUGGGGUUUUUUUGGGGUUUUUUUGGAAAGUAUUAUGUUACGCCGUUCGGAUCU`, the log2 enrichment was 0.14.
For `CAAGUCCUGUGCUACACAUCGUAUGUACCGAAUCGGGCCCGGGGCCCGGCCCGGGAAAGUAUUAUGUUACGCCGUUCGGAUCUGCACUUC`, the log2 enrichment was -0.836.
For `ACCAUGCAGGUGGGCAUCUUUGCGAAGUGGGGCAAGGGGGGGAUAGGGAGGGGGGUAACACUUUGGGAACAGGUGGUCCCAGGUCGUUUC`, the log2 enrichment was 1.2.
The log2 enrichment of `CUGUGCUACACAUCGUAUGUACCGAAUCGGGGAAAAAAGGGGAAAAAAGGGGAAAAAAGGGGAAAGUAUUAUGUUACGCCGUUCGGAUCU` is reported as -0.118.
For `UCCUGUGCUACACAUCGUAUGUACCGAAUCGGGGAAAGGGGUUUUUGGGGAAAAAGGGGAAAGUAUUAUGUUACGCCGUUCGGAUCUGCA`, the log2 enrichment was 0.565.

Study 2
Target: CCND2, cyclin fold, Cln2 fusion (human)
Method: yeast growth competition, sequencing
Medium: yeast
Notes: weak parent motif
Relative to: not given
Direction: higher = stronger binding
Parent: viral docking peptide; TSVRRALFTGGSD
Under “normalised enrichment score”, `S12V` is recorded as 0.0254.
`V3N` — result for “normalised enrichment score”: -0.299.
For `G10R`, “normalised enrichment score” read 0.0832.
`R4N` — result for “normalised enrichment score”: 0.0118.
`A6N` — result for “normalised enrichment score”: 0.0455.
`F8M` — result for “normalised enrichment score”: 0.0951.
`R5W` — result for “normalised enrichment score”: -0.0137.
Under “normalised enrichment score”, `R5L` is recorded as -0.28.
`A6Q` — result for “normalised enrichment score”: 0.239.
Under “normalised enrichment score”, `F8T` is recorded as -0.159.
`S12K` — result for “normalised enrichment score”: -0.497.
For `S12Y`, “normalised enrichment score” read 0.183.
For `R5E`, “normalised enrichment score” read 0.135.
`R4D` — result for “normalised enrichment score”: -0.112.
Under “normalised enrichment score”, `R4C` is recorded as -0.318.
`T9A` — result for “normalised enrichment score”: -0.104.
For `L7R`, “normalised enrichment score” read 0.104.
For `T9N`, “normalised enrichment score” read -0.0149.
Under “normalised enrichment score”, `A6L` is recorded as 0.343.
`G11N` — result for “normalised enrichment score”: -0.0636.
For `T9K`, “normalised enrichment score” read 0.024.
`F8H`: “normalised enrichment score” 0.112.
Under “normalised enrichment score”, `T9S` is recorded as -0.0287.
`S2C`: “normalised enrichment score” 0.237.
Under “normalised enrichment score”, `G10F` is recorded as 0.0596.

Study 3
Target: tungstate, free oxyanion
Method: microfluidic competitive inhibition
Medium: in vitro, cell-free expressed
Tested at: not given
Notes: derived from inhibition constants, unchanged parent 2230 nM
Direction: lower = stronger binding
Parent: PafA, mature enzyme, eGFP fusion (Elizabethkingia meningoseptica, UniProt Q9KJX5); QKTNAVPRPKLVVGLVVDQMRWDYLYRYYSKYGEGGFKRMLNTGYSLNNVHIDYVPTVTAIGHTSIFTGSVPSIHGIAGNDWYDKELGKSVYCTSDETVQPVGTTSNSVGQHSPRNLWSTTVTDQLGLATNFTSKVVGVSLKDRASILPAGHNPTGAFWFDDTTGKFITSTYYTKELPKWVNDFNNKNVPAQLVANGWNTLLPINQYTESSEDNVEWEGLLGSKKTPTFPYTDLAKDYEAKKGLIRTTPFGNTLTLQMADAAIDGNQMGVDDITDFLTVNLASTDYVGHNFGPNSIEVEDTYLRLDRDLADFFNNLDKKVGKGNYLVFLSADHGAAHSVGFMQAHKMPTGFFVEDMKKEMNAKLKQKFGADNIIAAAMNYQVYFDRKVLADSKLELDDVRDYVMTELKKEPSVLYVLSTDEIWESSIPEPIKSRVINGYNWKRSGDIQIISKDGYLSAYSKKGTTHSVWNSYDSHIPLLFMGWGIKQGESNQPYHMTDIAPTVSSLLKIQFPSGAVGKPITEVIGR
`D397G` — result for “oxyanion analog dissociation constant”: 2.1 µM.
Under “oxyanion analog dissociation constant”, `N361G` is recorded as 2.34 µM.
Under “oxyanion analog dissociation constant”, `A195G` is recorded as 2.13 µM.
`Q487V` — result for “oxyanion analog dissociation constant”: 2.7 µM.
For `L364G`, “oxyanion analog dissociation constant” read 1.82 µM.
`T419V`: “oxyanion analog dissociation constant” 1.6 µM.
`Y494V` — result for “oxyanion analog dissociation constant”: 2.28 µM.
Under “oxyanion analog dissociation constant”, `P149V` is recorded as 0.894 µM.
`G103V` — result for “oxyanion analog dissociation constant”: 2.19 µM.
`Q257G` — result for “oxyanion analog dissociation constant”: 2.28 µM.
Under “oxyanion analog dissociation constant”, `M342V` is recorded as 2.4 µM.
`I373G`: “oxyanion analog dissociation constant” 1.68 µM.
For `T64G`, “oxyanion analog dissociation constant” read 4.12 µM.
For `V109A`, “oxyanion analog dissociation constant” read 2.53 µM.
`E359G`: “oxyanion analog dissociation constant” 2.03 µM.
For `H51G`, “oxyanion analog dissociation constant” read 2.36 µM.
`A5G` — result for “oxyanion analog dissociation constant”: 2.34 µM.
For `G488A`, “oxyanion analog dissociation constant” read 2.14 µM.
`Y54V` — result for “oxyanion analog dissociation constant”: 2.6 µM.
Under “oxyanion analog dissociation constant”, `Q267V` is recorded as 2.4 µM.
`V71A`: “oxyanion analog dissociation constant” 1.9 µM.
For `L202G`, “oxyanion analog dissociation constant” read 1.86 µM.
`F184V`: “oxyanion analog dissociation constant” 1.38 µM.
For `N188G`, “oxyanion analog dissociation constant” read 1.93 µM.
For `I447V`, “oxyanion analog dissociation constant” read 2.55 µM.

Study 4
SMILES: Cn1cncc1[C@@](O)(COc1ccc(C#N)cc1-c1ccc(OC(F)(F)F)cc1)c1ccc(C#N)cc1
Read-out: cell-free assay
Method: competition with immobilised ligand
Tested at: 1 µM
It gave 90% for remaining binding (RIOK3 (Homo sapiens, UniProt O14730)).
For DSTYK (Homo sapiens, UniProt Q6XUX3): remaining binding read 100%.
EGFR (Homo sapiens, UniProt P00533) — remaining binding: 100%.
The remaining binding was 100% (EGFR (Homo sapiens, UniProt P00533, del747-752/P753S)).
The remaining binding was 85% (PIK3CA (Homo sapiens, UniProt P42336, Q546K)).

Some of these lines once more (study 3):
For `V109A`, “oxyanion analog dissociation constant” read 2.53 µM.
`E359G`: “oxyanion analog dissociation constant” 2.03 µM.
For `H51G`, “oxyanion analog dissociation constant” read 2.36 µM.
`A5G` — result for “oxyanion analog dissociation constant”: 2.34 µM.
For `G488A`, “oxyanion analog dissociation constant” read 2.14 µM.
`Y54V` — result for “oxyanion analog dissociation constant”: 2.6 µM.
Under “oxyanion analog dissociation constant”, `Q267V` is recorded as 2.4 µM.
`V71A`: “oxyanion analog dissociation constant” 1.9 µM.
For `L202G`, “oxyanion analog dissociation constant” read 1.86 µM.
`F184V`: “oxyanion analog dissociation constant” 1.38 µM.
